Results pooled from the literature.
Each numbered part is a random draw from the data of one study; scales do not carry over between parts. Changes are numbered by the printed parent chain.

Set 1
Target: CCND1, cyclin fold, Cln2 fusion (human)
Method: yeast growth competition, sequencing
Medium: yeast
Setting: strong parent motif
Relative to: not given
Direction: higher = stronger binding
Quantity: normalised enrichment score
Starting sequence: PKN2 docking peptide (human); VSAVQKLDFSDTM
F9T: 0.141
K6W: 1.44
D8C: 0.726
V1M: 2.09
V4A: 1.05
V4D: 0.573
D11I: 1.04
D8G: 0.331
S10K: 1.86
K6E: 0.549
S10T: 1.65
D11G: 2.41
D8T: 1.74
D8S: 0.976
F9Y: 0.49
L7H: 0.409

Set 2
Target: Sal-like protein 4, full length isoform B (SALL4, Homo sapiens, UniProt Q9UJQ4-2, residues 1-616)
Method: universal PBM
Molecule type: double-stranded DNA, one strand shown
Medium: in vitro
Tested at: not given
Setting: 8-mer, flanks averaged, mean of replicates
Direction: higher = stronger binding
Quantity: E-score
CATGCTAC: -0.0922
ACGGAAGG: -0.223
AGTACGCC: -0.168
GTTTTGAA: 0.126
ACTCCCCA: 0.0591
TACGTAGA: 0.162
CCAGACGC: -0.261
ACCGTCTA: -0.141
ATCGAACC: -0.0656
CCCAGATC: -0.313
TCGCAAGA: -0.125
GCCCGTGA: -0.271
ACAGGCTA: -0.0936
ACAGGAGT: 0.0157
ATCACCCC: -0.0141
GAGTTTGA: -0.0217
AGAGCATG: -0.0964
AGGCGCAG: -0.255
ATCACCTG: -0.0751
ACAGGGCT: -0.304
TCGTGCCA: -0.211
AGATCGTC: -0.154
CCAACTCG: -0.121

Set 3
Target: Interferon regulatory factor 5, full length, phosphomimetic (IRF5, Homo sapiens, UniProt Q13568-2, residues 1-514, K96S/S451D/S453D/S456D/S462D)
Method: protein-binding microarray
Molecule type: double-stranded DNA, one strand shown
Medium: in vitro
Tested at: 250 nM
Setting: 60-bp whole probe
With: salmon DNA 0.4 mg/ml
Relative to: random background probes
Direction: higher = stronger binding
Quantity: log fluorescence
All sequences stand within: GCCTAGCAC … GTCTTGATTCGCTTGACGCTGCTG
GACAGACTGGGGACTGGGGACGTGCTA: -0.27 z-score
TCAGGTTTCACTTTCCAACTGTGCTAG: 5.74 z-score
GACGGTTTCCTTCTCCTGTCGTGCTAG: 1.26 z-score
TTAGAACTGGGGTATCGAGTAGTGCTA: 0.382 z-score
TTAGGTAGCGACTATCGGTTAGTGCTA: 6.6 z-score
ATTGTTTTCAGTTTCACTGCGTGCTAG: 7.47 z-score
TCAATTTTGTGTTTTCAACTGTGCTAG: 1.1 z-score
GCCGATTTCGGGTATCGAGACGTGCTA: 5.69 z-score
TCAATTCTCTGTTTATGACTGTGCTAG: 1.02 z-score
TGAGGTATCGACACTGGGTTAGTGCTA: 1.07 z-score
GACGGTCTCGGACTGAGGACGTGCTAG: -0.355 z-score
TTAGGTATCAGTCTCGGTTAGTGCTAG: 2.39 z-score
CTCCCTTTCAGTTTTCCTATGTGCTAG: 3.45 z-score
GACGCTCTCGGACTGGGGACGTGCTAG: -0.554 z-score
TCAGATTCCAGTTTCGATTAGTGCTAG: 9.46 z-score
TTTGGTTTCGACACTGGGTTAGTGCTA: 8.14 z-score
TTAGGTATTGGGTTTCGGTTAGTGCTA: 7.75 z-score
TCACCATTGGTCTTCACACTGTGCTAG: 0.0586 z-score
TTTGATATCGGGTATCGATTAGTGCTA: 6.93 z-score
GACGGTATCGGGTTTCGGGAAGTGCTA: 5.28 z-score
TCACCTTTGCCTCCAGGACTGTGCTAG: 0.0808 z-score

Set 4
Target: RNA binding protein fox-1 homolog 2, RRM domain, GST-SBP tag (RBFOX2, Homo sapiens, UniProt O43251-10, residues 100-194)
Method: RNA Bind-n-Seq
Molecule type: RNA
Medium: in vitro
Tested at: 365 nM
Setting: natural RNA segment, single round, ends assumed
Relative to: no-protein control
Direction: higher = stronger binding
Quantity: RBNS enrichment (R)
All sequences stand within: GGGAGUUCUACAGUCCGACGAUC … UGGAAUUCUCGGGUGCCAA
Target sequence (chain): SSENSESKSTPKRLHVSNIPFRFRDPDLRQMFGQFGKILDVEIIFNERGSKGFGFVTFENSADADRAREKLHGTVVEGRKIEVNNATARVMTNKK
AGAUGGUAUCAUCUCUAAACCUAAGAAUUUAUAGAAGCACUUCCUUACAGAGCUAAGAAUCCAUAGCCAUGGCUCUGUAAGCUAAACCUGAAGAGUGAUAUUUGUACAAU: 0.278
AAGUAUGCUUUCUCCUGAAAACUUUAGCAUUGGGUGCAAAUAUUCAGUAUGGUUCUCGGAGUCCAAAGGGUUUUAAGCCAGGGCACAACCAGAAAAGUGGCUCUCUUUGG: 0.738
ACUUUCAGGAGCCUCAGGAUCAGUCCUCUAGCAUUUCCUUCACCUUUCUCAUGUACAGGGGCAGCGUGUCUGUGUGUGGAGGGUCCGGGUUACAAGGUAAGCUAGGUUGC: 0.325
CUCCUAAACCAAGCAGAAUUUUGGGAAGAGAUAACAGCCAGGGAGAUAUUGCCCAUGAUUCUCACUUUUUCUUUGCCUGGCAUCUAAGCAGGAACCCAUUGUGGAGUAGA: 0.984
AGUGCCCUAUCCCUGGCAGGCCCCUAGUGGGGGUGUCGUGGCUUUUUUCAGAGUCUAUAAGCAUGCAGCCAUGGGUUGUGAGCUGACCUUGAGACAGGACGGGUCCCACA: 1.62
CGCCACGCCAGCUCCUGGGUCGUUUUCAUUUAUCUGGCAGAGCCCAGGACCCUUAGAAUCAUAUUUUAGCUGAAGGAUGCUCACUGAUGCGGCCGAGGGCUUGGGAUACU: 0.373
CUGUAGUGCACUCCCAGCAGGCCAUGGACUAGUCACUAACCCCACACUCAAAGGGGCAUGGGUGGUGGAGAAGCAGAAGGAGCAAUCAAGCUUAUCUGGAUAUUUCUUUC: 0.18
UGUUUUGGUUGUUUUCUUAAAAAACAAGUUAAAACCUGACGAUUUCUGCAGGCUGUGUAAGCAUGUUUACCUGUUGGCUUGCUUUGUGUGUCUGUUAAAUGAAUGUCAUA: 7.84
GGCUGCCUCGGGCAGGGCCUCCGGCCUCCGGCGCUCUCCCAGGAGGAGGUCAAGUUCCACACGCACGAGCCGCCUCAGCUGGACGGUGCAGUCAUGGCUGGCACAUGAGG: 0.634
AUGGGAGACCCAAGGGGAACACAUGCUGCCUCUGCUGAAAGACCCUGGGUUUUUCUUGGAAGAAAGGACUCUAGGGUGGAUGGUACCAGGCCUUCAGGGUUAGAUCAUCU: 0.283
GAGCUUGAAGGUGAGGCCUGAGGGGCCACAGAUGAGUCAUGUUUUAGUGCUGAUGACAGAGGGGCCGGUCGCAUGGGAUGAGGCUCGGUGGGCCUCUUGCUUGUUGUCUC: 8.3
CAGGUGACAUUUGUUGACACCAUUCUCAGAGGUGUUGAAGAUUUAUCAUCUUGAAUCCUCCACAAAUACAGAUACAGUCCCAAGGGAGGUAGUCGUAGAAAUGGAAGACG: 0.266

Repeated from above (set 4):
GGCUGCCUCGGGCAGGGCCUCCGGCCUCCGGCGCUCUCCCAGGAGGAGGUCAAGUUCCACACGCACGAGCCGCCUCAGCUGGACGGUGCAGUCAUGGCUGGCACAUGAGG: 0.634
CUGUAGUGCACUCCCAGCAGGCCAUGGACUAGUCACUAACCCCACACUCAAAGGGGCAUGGGUGGUGGAGAAGCAGAAGGAGCAAUCAAGCUUAUCUGGAUAUUUCUUUC: 0.18
CAGGUGACAUUUGUUGACACCAUUCUCAGAGGUGUUGAAGAUUUAUCAUCUUGAAUCCUCCACAAAUACAGAUACAGUCCCAAGGGAGGUAGUCGUAGAAAUGGAAGACG: 0.266
ACUUUCAGGAGCCUCAGGAUCAGUCCUCUAGCAUUUCCUUCACCUUUCUCAUGUACAGGGGCAGCGUGUCUGUGUGUGGAGGGUCCGGGUUACAAGGUAAGCUAGGUUGC: 0.325
CUCCUAAACCAAGCAGAAUUUUGGGAAGAGAUAACAGCCAGGGAGAUAUUGCCCAUGAUUCUCACUUUUUCUUUGCCUGGCAUCUAAGCAGGAACCCAUUGUGGAGUAGA: 0.984
AGUGCCCUAUCCCUGGCAGGCCCCUAGUGGGGGUGUCGUGGCUUUUUUCAGAGUCUAUAAGCAUGCAGCCAUGGGUUGUGAGCUGACCUUGAGACAGGACGGGUCCCACA: 1.62
AAGUAUGCUUUCUCCUGAAAACUUUAGCAUUGGGUGCAAAUAUUCAGUAUGGUUCUCGGAGUCCAAAGGGUUUUAAGCCAGGGCACAACCAGAAAAGUGGCUCUCUUUGG: 0.738
